Results collected from several papers.
A part holds a random share of what one study measured. Changes are numbered by the printed parent chain.

Block 1
Target: CCNE1, cyclin fold, Cln2 fusion (human)
Method: yeast growth competition, sequencing
Medium: yeast
Setting: weak parent motif
Reference: not given
Reading: higher = stronger binding
Measurement: normalised enrichment score
Starting sequence: SLBP docking peptide (human); ARYKRKLLINDFG
A1V: 1.06
L7W: 0.00278
D11Q: 0.601

Block 2
Target: Sal-like protein 4, full length isoform A (SALL4, Homo sapiens, UniProt Q9UJQ4, residues 1-1053)
Sequence of UniProt Q9UJQ4 (whole entry, looked up): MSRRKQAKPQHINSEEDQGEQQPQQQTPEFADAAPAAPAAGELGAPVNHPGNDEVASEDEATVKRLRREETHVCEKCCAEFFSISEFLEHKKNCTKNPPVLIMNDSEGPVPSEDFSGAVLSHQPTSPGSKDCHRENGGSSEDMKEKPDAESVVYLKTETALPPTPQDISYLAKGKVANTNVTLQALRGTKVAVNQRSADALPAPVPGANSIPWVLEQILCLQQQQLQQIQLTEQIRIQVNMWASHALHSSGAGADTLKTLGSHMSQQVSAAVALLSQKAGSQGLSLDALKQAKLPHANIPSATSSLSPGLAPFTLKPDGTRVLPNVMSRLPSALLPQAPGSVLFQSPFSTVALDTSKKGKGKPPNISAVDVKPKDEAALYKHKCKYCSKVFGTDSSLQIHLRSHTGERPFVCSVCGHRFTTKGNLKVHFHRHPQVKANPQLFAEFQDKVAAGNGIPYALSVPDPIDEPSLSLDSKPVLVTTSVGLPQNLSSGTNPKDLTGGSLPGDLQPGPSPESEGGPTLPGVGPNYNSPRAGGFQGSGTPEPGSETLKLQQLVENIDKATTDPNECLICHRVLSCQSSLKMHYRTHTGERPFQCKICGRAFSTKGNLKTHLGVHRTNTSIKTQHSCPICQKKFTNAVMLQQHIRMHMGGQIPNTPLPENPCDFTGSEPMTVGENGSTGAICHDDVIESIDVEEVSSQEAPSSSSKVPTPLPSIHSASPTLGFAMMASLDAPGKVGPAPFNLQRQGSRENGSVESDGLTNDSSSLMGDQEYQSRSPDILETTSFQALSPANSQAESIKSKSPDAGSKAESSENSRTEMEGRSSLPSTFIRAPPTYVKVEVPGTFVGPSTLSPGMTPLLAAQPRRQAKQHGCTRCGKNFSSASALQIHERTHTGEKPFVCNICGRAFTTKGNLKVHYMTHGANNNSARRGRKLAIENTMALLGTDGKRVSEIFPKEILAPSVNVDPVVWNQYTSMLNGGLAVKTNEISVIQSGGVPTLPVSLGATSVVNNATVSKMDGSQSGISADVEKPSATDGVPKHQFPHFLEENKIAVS
Method: universal PBM
Molecule type: double-stranded DNA, one strand shown
Medium: in vitro
Tested at: 600 nM
Setting: 8-mer, flanks averaged, mean of replicates
Reading: higher = stronger binding
Measurement: E-score
CCAGCACC: -0.275
GGAATGGA: -0.177
CCATCTCG: -0.319
ACGAAGCT: -0.141
ACTGCTCC: -0.226

Block 3
Target: Prothrombin, mature alpha-thrombin (F2, Homo sapiens, UniProt P00734)
Method: aptamer microarray, sandwich
Molecule type: DNA with 2'F-ANA
Medium: in vitro
Tested at: 200 nM
Setting: whole 15-mer aptamer, many near background
With: Cy3 exosite-II aptamer, 400 nM
Reading: higher = stronger binding
Measurement: mean fluorescence intensity
Sequence: GGTTGGTGTGGTTGG
2'F-ANA at 5 7 9 11 12 14 15: 61.2 a.u.
2'F-ANA at 1 7 8 12 13 14: 84 a.u.
2'F-ANA at 2 3 4 5 8 9 13 14: 51.3 a.u.
2'F-ANA at 2 3 4 5 8 10 13 15: 88.4 a.u.
2'F-ANA at 1 3 4 5 7 9 11 12 13 14 15: 63 a.u.
2'F-ANA at 3 5 11 13 14 15: 54.8 a.u.

Single results of other studies
PhoQ, residues 284 288 289 292 302 303 SLSVQF  fold induction (PhoP, residues 12 14 15 18 19 LHSVW (Escherichia coli, UniProt P23836); Sort-seq, item: YFP reporter; E. coli; PhoQ-PhoP variant library, with: 10 µM Mg2+; reference: high Mg2+ state, higher = stronger signaling): 8.45
